Assay results pooled from the literature.
Each line is one published result; not all experiments were run side by side. Several values in a cell are separate wells, animals, samples, runs or records. ± gives the spread as reported.

| Structure (SMILES) | test system | conditions | endpoint | value |
| --- | --- | --- | --- | --- |
| CO.Cc1ccc2c(Cl)cc(Cl)c([O-])c2n1.Cc1ccc2c(Cl)cc(Cl)c([O-])c2n1.[Co+2].c1ccc2nc3c4cccnc4c4ncccc4c3nc2c1 | nude mouse, HeLa xenograft | 2.0 mg/kg, end of treatment | tumour volume | 613 ± 98.5 mm3 |
| COC(=O)C1CN1S(=O)(=O)c1ccc2cc(C)ccc2c1 (centres unmarked) | mouse, Lewis lung carcinoma | ip, 100 mg/kg, 336 h | tumour growth inhibition | 51% |
| COc1cnc2cccc(N3CCc4c(cc(Cn5ccnc5)cc4-c4cn(C)nc4C(F)(F)F)C3=O)c2c1 | BALB/c nude mouse, MV4-11 xenograft | intraperitoneal, 50 mg/kg, day 10 after inoculation | tumour volume | 159 mm3 and 170 mm3 and 128 mm3 and 171 mm3 and 154 mm3 and 146 mm3 |
| COc1cc(N2CCN(C(=O)C3CCCN3)CC2)ccc1Nc1ncc(Cl)c(Nc2ccccc2P(C)(C)=O)n1 (centres unmarked) | NCI-H3122, mouse, H3122 xenograft | oral, 25 mg/kg every two days, 8 doses, 48 h | tumour volume | 126 mm3 and 399 mm3 |
| CC1(C)CCC(CN2CCN(c3ccc(C(=O)NS(=O)(=O)c4ccc(NCC5CCOCC5)c([N+](=O)[O-])c4)c(Oc4cnc5[nH]ccc5c4)c3)CC2)=C(c2ccc(Cl)cc2)C1 | RS4;11, mouse RS4;11 xenograft | oral, 15 mg/kg once daily, day 14 | tumour growth inhibition | 104% |
| C=CC(=O)N1CC2C(=O)N(CCN(C)C)c3c(c4cc(Cl)c(-c5c(O)cccc5F)nc4n(-c4c(C)ccnc4C(C)C)c3=O)N2CC1C (centres unmarked) | NCI-H358, mouse xenograft | oral, 30 mg/kg once daily | tumour growth inhibition | 112% |
| CC(C)c1ccccc1[C@@H]1CCCN1C1CC2(CCN(c3ccc(C(=O)NS(=O)(=O)c4ccc(NC[C@H]5CC[C@](C)(O)CC5)c([N+](=O)[O-])c4)c(Oc4cnc5[nH]ccc5c4)c3)CC2)C1 | mouse Toledo xenograft | oral, 15 mg/kg once daily, day 31 | tumour growth inhibition | 84% |
| CC(C)c1ccc(N(C)c2ccc3c(c2)OCC[C@H]3CNc2cnccc2C(=O)O)cc1 | mouse, sample A gastric PDX | 50 mg/kg, day 38 | tumour growth inhibition | 52% |
